Assay results collected from several papers.
Numbers after ± are the reported error.
Chain of UniProt P08908 (whole entry, looked up): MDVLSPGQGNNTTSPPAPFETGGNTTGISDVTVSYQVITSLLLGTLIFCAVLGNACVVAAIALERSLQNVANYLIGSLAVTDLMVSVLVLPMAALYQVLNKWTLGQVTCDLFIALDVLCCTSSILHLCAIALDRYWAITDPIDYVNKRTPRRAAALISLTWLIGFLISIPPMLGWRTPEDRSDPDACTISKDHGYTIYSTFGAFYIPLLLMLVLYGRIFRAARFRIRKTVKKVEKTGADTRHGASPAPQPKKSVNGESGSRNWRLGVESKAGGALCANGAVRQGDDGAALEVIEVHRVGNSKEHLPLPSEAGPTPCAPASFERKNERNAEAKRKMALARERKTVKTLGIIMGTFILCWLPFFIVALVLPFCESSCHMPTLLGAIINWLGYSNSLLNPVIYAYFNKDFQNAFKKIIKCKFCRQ
Chain of UniProt P33533 (whole entry, looked up): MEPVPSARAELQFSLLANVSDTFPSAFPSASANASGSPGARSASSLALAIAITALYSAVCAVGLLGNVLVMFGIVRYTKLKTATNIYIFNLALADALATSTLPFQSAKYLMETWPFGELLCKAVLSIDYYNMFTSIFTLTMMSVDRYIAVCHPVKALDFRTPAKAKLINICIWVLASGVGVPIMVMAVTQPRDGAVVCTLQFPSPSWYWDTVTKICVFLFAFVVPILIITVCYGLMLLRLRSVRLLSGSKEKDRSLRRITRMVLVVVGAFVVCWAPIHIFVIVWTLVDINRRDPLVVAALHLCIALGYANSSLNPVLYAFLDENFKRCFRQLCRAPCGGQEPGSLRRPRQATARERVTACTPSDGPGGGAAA
Chain of UniProt O14965 (whole entry, looked up): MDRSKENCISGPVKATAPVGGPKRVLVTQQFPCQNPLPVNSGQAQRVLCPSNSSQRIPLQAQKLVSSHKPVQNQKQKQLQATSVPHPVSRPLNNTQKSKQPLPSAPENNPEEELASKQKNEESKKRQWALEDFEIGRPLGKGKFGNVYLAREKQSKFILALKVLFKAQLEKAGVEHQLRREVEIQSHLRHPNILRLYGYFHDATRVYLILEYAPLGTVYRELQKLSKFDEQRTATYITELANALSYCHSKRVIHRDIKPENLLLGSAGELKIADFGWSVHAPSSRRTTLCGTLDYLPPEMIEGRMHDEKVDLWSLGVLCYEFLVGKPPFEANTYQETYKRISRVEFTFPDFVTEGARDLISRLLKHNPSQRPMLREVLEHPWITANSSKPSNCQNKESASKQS
Chain of UniProt P21554 (whole entry, looked up): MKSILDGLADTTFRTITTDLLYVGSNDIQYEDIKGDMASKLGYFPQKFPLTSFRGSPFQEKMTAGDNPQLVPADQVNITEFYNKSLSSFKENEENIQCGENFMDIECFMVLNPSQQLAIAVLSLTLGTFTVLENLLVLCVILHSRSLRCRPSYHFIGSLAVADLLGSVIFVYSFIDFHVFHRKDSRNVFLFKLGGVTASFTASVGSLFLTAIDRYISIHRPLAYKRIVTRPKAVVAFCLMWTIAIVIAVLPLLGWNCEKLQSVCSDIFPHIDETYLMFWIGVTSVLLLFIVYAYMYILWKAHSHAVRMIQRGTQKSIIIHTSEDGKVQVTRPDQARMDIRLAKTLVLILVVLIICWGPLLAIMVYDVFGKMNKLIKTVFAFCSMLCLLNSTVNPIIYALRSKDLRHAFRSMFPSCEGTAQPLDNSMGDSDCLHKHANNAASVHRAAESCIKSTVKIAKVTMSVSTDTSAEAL
Chain of UniProt P36896 (whole entry, looked up): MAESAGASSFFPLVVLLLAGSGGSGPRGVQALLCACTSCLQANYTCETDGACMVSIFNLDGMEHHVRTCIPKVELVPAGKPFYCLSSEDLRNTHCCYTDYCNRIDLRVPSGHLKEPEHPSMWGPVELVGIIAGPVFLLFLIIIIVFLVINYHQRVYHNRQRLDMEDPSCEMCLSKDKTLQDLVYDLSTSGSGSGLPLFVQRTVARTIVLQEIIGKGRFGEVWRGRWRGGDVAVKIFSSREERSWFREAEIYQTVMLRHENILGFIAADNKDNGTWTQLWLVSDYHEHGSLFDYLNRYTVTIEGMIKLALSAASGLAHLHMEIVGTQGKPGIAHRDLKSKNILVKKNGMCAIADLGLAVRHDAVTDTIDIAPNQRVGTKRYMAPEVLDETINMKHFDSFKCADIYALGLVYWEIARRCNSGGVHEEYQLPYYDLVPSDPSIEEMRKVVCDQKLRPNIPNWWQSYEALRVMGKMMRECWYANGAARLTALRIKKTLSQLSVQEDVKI
Chain of UniProt P06276 (whole entry, looked up): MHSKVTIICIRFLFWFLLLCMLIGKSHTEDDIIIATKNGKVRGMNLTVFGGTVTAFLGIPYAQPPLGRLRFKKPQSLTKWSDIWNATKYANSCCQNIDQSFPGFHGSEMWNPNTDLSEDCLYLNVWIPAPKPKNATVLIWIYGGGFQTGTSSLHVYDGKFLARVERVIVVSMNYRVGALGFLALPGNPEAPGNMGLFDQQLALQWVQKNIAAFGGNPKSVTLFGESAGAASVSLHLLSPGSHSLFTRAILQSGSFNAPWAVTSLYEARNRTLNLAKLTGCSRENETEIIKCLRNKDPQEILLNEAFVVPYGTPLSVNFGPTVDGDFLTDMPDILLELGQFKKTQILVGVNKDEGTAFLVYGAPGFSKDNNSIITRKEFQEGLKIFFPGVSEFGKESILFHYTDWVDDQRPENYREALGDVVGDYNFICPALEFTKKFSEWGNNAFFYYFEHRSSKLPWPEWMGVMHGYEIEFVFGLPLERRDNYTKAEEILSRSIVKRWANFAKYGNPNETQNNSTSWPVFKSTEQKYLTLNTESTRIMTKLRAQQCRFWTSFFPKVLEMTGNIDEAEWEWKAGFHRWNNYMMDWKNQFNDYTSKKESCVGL
Chain of UniProt O75676 (whole entry, looked up): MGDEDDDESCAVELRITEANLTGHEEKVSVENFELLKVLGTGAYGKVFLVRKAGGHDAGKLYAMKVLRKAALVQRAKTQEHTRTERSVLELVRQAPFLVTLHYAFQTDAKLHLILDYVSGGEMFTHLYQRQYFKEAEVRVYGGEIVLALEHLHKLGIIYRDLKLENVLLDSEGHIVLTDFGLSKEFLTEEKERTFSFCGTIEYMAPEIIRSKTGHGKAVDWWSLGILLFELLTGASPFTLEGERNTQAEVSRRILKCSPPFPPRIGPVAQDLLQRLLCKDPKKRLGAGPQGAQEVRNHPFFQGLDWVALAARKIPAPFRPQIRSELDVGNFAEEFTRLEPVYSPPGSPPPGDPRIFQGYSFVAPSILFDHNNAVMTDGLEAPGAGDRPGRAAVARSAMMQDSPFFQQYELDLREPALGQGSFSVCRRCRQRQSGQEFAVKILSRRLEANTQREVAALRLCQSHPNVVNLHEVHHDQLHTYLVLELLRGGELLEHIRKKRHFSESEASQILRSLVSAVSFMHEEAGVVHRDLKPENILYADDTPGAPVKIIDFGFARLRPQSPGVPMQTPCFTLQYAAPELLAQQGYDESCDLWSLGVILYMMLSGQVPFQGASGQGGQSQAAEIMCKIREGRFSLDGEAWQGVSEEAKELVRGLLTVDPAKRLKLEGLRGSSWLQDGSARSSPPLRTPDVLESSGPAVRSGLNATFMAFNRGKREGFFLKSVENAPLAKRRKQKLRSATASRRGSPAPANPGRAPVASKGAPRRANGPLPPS
Chain of UniProt Q96S44 (whole entry, looked up): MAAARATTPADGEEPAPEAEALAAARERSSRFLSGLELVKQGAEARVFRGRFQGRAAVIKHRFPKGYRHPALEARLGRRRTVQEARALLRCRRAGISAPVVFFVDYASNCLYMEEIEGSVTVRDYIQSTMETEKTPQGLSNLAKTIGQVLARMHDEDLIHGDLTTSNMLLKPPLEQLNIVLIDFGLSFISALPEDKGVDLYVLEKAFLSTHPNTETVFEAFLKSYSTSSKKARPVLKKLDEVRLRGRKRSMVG
Chain of UniProt P24723 (whole entry, looked up): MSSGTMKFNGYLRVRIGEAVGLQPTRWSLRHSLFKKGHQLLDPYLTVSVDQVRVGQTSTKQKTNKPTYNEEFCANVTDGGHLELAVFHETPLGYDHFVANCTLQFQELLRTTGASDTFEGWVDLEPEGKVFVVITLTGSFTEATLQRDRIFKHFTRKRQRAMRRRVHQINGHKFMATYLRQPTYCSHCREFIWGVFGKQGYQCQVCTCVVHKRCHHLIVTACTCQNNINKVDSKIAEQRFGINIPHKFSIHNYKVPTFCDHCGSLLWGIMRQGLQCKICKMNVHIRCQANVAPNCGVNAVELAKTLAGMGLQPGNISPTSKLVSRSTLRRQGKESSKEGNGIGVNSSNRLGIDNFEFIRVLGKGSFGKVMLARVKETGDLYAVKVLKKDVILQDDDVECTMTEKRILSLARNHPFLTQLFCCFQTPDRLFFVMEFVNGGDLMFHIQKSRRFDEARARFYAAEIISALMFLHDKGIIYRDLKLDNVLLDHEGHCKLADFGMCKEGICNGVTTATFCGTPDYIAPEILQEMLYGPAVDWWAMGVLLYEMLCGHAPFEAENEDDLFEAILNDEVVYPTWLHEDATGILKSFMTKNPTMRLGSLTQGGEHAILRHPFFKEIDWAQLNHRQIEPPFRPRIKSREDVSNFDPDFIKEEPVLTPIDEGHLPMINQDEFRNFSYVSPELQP
Chain of UniProt P07948 (whole entry, looked up): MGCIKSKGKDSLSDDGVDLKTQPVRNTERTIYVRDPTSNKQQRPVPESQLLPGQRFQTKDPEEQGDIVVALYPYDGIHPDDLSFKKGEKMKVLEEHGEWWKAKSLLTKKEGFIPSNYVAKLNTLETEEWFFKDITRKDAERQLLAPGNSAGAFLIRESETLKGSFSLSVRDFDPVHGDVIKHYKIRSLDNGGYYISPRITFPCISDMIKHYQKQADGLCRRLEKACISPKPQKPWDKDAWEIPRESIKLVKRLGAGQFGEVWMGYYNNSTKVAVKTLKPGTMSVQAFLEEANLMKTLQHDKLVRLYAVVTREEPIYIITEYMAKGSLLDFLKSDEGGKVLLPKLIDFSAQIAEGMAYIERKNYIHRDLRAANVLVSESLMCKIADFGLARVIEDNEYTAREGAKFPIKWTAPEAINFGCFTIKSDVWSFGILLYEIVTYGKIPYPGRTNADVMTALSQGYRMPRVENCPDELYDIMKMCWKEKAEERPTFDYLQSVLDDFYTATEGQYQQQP

Compound | target | assay | system | conditions | scale | measurement | value
CCOC(=O)[C@@H]1Cc2c(cc([N+](=O)[O-])cc2[N+](=O)[O-])[C@H](O)[C@]12C(=O)Nc1ccc(Br)cc12 | Tyrosine-protein kinase receptor UFO (AXL, Homo sapiens, UniProt P30530) | binding, competition with immobilised ligand | – | 0.1 µM | – | remaining binding | 53%
CCCN(Cc1nnc(-c2ccco2)o1)C(=O)C1CCCN(C(=O)c2ccc(Cl)cc2)C1 (stereo not drawn) | Dihydroorotate dehydrogenase (quinone), mitochondrial (PFF0160c, Plasmodium falciparum, UniProt Q08210, E182D) | enzyme activity, DCIP colorimetric | – | – | reference: E182D mutant over wild type | IC50 ratio | 2
C[C@@H](O)[C@@H]1CN([C@@H](CC2CCCCC2)CN2CCC[C@H]2CN2CCNC[C@@H]2CO)CCN1CCc1ccc(Cl)c(Cl)c1 | Delta-type opioid receptor (Oprd1, Rattus norvegicus, UniProt P33533) | radioligand binding | rat brain membranes | 500 nM, pH 7.5, 25 °C, with: 2 nM [3H]DPDPE | – | remaining binding | 91.7%
CC(=O)NCC(=O)N[C@@H](CO)C(=O)N[C@@H](CS)C(=O)N[C@@H](CCCNC(=N)N)C(=O)N[C@@H](CCCCN)C(=O)N[C@@H](CCCNC(=N)N)C(=O)N[C@@H](CC(N)=O)C(=O)N[C@@H](CCCNC(=N)N)C(=O)N[C@@H](CO)C(=O)N1CCC[C@H]1C(=O)N[C@@H](CCC(=O)O)C(=O)N[C@@H](CCCNC(=N)N)C(N)=O | WD repeat-containing protein 5 (WDR5, Homo sapiens, UniProt P61964) | binding, competitor of LANA peptide, ITC | – | pH 7.0, 20 °C, WIN motif peptide | – | ΔH | -4.97 kcal/mol
COC(=O)[C@@H](NC(=O)c1nn(Cc2ccc(F)cc2)c2cc(OCCCCNC(N)=O)ccc12)C(C)(C)C | Cannabinoid receptor 1, with Goa (CNR1, Homo sapiens, UniProt P21554) | GTP turnover, agonist, measured: Goa Gα subtype | – | – | – | maximal efficacy | 113%
O=C(N[C@@H]1c2ccccc2C[C@H]1N1CCCC1)c1ccc(-c2ccnc3[nH]ccc23)nc1 | Ribosomal protein S6 kinase alpha-4, C-terminal kinase domain (RPS6KA4, Homo sapiens, UniProt O75676) | binding, competition with immobilised ligand | – | 3 µM | – | remaining binding | 8.7%
CC(=O)N[C@@H](CC(=O)O)C(=O)N[C@@H](CCC(=O)O)C(=O)N[C@H](C(=O)N[C@@H](CC(=O)O)C(=O)Nc1ccc2c(C)cc(=O)oc2c1)C(C)C | Cholinesterase (BCHE, Homo sapiens, UniProt P06276) | – | – | concentration not given, Triton | – | efficacy | -79.7 ± 8.64%
CC(C)[C@H]1NC(=O)C[C@H]2/C=C/CCSSC[C@@H](NC1=O)C(=O)N[C@H](Cc1cccc3ccccc13)C(=O)NCC(=O)O2 | Protein kinase C eta type (PRKCH, Homo sapiens, UniProt P24723) | enzyme activity, inhibitor | – | 10 µM | – | inhibition | 1.8%
C[C@H](NCc1ccc(-c2ccc(C(F)(F)F)cc2)cc1)C(N)=O | Activin receptor type-1B (ACVR1B, Homo sapiens, UniProt P36896) | cell-free assay, competition with immobilised ligand | – | 1 µM | – | inhibition | 5%
C=C(c1ccccc1)[C@@H](N)P(=O)(O)O | PAL1 (Petroselinum crispum, UniProt P24481, Y110F) | binding, ITC | – | – | – | -TΔS | 1.4 kcal/mol
CS(C)(=O)=Nc1ccc(-c2ccc(-c3nc4cc(O[C@@H]5CO[C@H]6[C@@H]5OC[C@H]6O)[nH]c4cc3F)cc2)cc1 | Tyrosine-protein kinase Lyn (LYN, Homo sapiens, UniProt P07948) | enzyme activity, inhibitor | – | 10 µM | – | inhibition | 3%
CN(C)[C@H]1C[C@@]23CC[C@@]4(O2)C(=CC[C@]2(C)[C@@H](c5ccc6ccncc6c5)CC[C@H]24)C=C3[C@@H](O)[C@@H]1O | EKC/KEOPS complex subunit TP53RK (TP53RK, Homo sapiens, UniProt Q96S44) | ATP probe labelling, inhibitor, KiNativ profiling | – | 0.1 µM | – | inhibition | 10.4%
O=C1NC(=O)c2c1c1cc(F)c[n+]3c1c1c2c2cc(O)ccc2[n]1[Ru-4]312([N]=C=S)[S+]3CC[S+]1CC[S+]2CC3 (stereo not drawn) | Aurora kinase A (AURKA, Homo sapiens, UniProt O14965) | enzyme activity | – | 100 nM, human enzyme, with: 10 µM ATP | reference: untreated | remaining activity | 44%
CCCCC[C@@H]1OC(=O)[C@@H](C)N(C)C(=O)[C@H](CCCCC)OC(=O)[C@@H](C)N(C)C(=O)[C@H](CCCCC)OC(=O)[C@@H](C)N(C)C(=O)[C@H](CCCCC)OC(=O)[C@@H](C)N(C)C1=O | ryanodine receptor 2 (Sus scrofa, UniProt A0A5G2R1W3) | single-channel gating, planar lipid bilayer | – | 3 µM, pCa 7, porcine | – | open dwell time constant T1 | 3 ± 1.9 ms
CCc1nnc(-c2c(OC)cc(-c3cnc4cc(-c5cnn(C)c5)ccn34)cc2OC)o1 | 5-hydroxytryptamine receptor 1A (HTR1A, Homo sapiens, UniProt P08908) | agonist radioligand, radioligand binding | – | 10 µM, SafetyScreen44 5-HT1A mean | lower = stronger displacement | remaining binding | 99.1%
